Published values collected from several papers.
Parts stem from different laboratories: compare values within a part only.
UniProt P28222, sequence (whole entry, looked up): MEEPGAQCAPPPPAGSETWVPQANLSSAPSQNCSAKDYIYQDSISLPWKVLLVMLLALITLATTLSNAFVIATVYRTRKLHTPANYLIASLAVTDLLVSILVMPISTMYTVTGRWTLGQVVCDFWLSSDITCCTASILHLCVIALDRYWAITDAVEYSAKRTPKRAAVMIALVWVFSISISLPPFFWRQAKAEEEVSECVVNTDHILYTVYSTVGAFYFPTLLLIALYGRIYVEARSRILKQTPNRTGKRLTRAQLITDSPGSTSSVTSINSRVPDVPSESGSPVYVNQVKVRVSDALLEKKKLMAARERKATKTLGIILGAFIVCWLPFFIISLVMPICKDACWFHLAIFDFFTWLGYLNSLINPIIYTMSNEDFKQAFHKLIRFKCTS
UniProt O75914, sequence (whole entry, looked up): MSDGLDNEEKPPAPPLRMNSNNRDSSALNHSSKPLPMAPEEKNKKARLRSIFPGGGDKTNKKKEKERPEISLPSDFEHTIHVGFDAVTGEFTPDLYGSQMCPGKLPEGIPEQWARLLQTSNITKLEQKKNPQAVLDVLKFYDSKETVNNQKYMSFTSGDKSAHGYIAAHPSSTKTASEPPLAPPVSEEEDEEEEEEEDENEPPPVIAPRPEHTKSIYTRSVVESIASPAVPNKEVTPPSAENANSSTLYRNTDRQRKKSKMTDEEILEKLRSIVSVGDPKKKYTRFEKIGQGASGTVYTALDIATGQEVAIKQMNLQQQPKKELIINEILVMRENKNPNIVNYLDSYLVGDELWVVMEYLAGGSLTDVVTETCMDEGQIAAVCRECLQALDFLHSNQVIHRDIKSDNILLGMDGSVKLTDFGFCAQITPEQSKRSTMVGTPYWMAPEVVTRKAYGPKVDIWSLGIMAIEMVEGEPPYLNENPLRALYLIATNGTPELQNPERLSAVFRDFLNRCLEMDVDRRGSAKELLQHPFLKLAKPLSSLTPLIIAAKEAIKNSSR
UniProt Q96L34, sequence (whole entry, looked up): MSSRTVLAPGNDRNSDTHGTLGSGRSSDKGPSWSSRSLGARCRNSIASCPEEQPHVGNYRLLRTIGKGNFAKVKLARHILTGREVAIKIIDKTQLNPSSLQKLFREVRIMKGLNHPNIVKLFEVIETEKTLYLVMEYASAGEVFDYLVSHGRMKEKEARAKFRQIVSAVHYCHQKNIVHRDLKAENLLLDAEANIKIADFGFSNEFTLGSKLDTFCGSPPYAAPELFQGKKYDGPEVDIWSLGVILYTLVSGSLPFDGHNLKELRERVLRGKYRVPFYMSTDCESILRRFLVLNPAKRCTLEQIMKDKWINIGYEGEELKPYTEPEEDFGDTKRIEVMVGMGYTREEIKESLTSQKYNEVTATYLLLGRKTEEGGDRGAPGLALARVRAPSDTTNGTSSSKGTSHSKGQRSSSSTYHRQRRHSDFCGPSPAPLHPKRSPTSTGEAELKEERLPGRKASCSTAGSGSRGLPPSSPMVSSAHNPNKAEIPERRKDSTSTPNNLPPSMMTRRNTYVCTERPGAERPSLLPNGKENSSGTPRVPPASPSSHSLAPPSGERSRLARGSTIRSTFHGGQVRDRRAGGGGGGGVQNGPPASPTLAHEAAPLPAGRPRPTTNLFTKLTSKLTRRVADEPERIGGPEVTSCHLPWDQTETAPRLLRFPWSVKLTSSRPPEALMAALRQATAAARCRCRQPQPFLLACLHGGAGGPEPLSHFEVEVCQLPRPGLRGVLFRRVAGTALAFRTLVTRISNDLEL
UniProt Q02750, sequence (whole entry, looked up): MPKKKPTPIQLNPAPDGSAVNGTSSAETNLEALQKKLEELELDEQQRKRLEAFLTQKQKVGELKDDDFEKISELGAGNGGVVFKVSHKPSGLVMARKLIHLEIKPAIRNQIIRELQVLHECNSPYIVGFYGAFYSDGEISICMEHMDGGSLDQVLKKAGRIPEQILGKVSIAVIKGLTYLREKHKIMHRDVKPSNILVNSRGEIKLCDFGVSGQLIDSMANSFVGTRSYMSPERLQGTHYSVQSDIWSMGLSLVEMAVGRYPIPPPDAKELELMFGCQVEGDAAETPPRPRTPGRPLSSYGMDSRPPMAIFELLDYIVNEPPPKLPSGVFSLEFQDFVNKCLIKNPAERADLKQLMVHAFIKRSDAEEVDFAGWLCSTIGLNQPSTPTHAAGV
UniProt P28566, sequence (whole entry, looked up): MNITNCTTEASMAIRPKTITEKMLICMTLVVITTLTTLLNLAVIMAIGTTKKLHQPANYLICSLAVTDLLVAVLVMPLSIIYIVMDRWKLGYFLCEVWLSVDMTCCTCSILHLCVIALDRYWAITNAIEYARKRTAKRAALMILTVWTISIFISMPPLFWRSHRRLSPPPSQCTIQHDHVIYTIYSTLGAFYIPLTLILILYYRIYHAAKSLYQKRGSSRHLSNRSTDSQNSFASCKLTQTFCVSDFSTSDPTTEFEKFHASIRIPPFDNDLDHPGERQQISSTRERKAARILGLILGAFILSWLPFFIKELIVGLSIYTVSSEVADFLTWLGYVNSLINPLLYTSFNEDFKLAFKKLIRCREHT
UniProt Q9HAZ1, sequence (whole entry, looked up): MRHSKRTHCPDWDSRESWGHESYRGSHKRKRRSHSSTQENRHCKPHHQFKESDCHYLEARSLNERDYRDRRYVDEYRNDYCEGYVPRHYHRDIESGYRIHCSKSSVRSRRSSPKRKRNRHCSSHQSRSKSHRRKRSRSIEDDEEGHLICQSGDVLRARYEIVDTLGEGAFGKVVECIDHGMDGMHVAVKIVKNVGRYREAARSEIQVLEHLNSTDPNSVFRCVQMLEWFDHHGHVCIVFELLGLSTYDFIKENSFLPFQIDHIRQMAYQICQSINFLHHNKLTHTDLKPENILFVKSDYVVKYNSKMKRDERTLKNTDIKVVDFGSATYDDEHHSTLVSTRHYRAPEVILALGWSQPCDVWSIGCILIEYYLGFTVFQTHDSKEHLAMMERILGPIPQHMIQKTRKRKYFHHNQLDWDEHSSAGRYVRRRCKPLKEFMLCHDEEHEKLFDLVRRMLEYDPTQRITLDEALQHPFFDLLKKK
UniProt P31751, sequence (whole entry, looked up): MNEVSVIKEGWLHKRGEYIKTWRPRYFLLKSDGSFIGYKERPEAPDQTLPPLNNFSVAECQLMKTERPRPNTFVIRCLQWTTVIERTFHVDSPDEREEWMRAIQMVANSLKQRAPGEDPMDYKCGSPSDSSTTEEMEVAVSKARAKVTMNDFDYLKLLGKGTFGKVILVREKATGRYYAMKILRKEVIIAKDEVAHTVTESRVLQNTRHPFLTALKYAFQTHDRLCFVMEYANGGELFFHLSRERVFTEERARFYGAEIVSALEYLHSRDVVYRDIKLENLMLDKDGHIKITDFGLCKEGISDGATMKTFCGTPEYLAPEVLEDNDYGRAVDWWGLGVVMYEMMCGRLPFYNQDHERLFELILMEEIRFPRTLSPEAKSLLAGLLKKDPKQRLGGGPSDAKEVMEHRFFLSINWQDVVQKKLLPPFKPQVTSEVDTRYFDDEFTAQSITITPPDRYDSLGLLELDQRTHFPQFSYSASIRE

Sample 1 — read-out: enzyme activity; action: inhibitor; tested at: 10 µM
Target: Calcium/calmodulin-dependent protein kinase type II subunit alpha (CAMK2A, Homo sapiens, UniProt Q9UQM7)
UniProt Q9UQM7, sequence (whole entry, looked up): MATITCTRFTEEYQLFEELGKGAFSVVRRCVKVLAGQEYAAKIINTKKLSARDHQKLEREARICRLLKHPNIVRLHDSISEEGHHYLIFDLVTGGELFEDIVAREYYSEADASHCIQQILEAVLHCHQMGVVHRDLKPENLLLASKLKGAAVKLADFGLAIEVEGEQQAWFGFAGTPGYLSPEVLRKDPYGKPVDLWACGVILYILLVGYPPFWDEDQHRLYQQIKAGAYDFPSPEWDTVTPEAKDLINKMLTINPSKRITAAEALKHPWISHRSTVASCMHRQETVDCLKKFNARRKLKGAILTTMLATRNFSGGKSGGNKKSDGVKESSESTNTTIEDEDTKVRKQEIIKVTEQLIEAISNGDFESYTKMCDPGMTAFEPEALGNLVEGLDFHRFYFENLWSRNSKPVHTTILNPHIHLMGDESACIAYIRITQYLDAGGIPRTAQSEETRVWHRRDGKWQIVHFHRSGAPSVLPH
`C/C(=C\c1csc(C)n1)[C@@H]1C[C@@H]2O[C@@H]2CCC[C@H](C)[C@H](O)[C@@H](C)C(=O)C(C)(C)[C@@H](O)CC(=O)O1` gave an inhibition of -2%.
For `NC(=O)c1cn([C@@H]2O[C@H](CO)[C@@H](O)[C@H]2O)c2ncnc(N)c12`, the inhibition was -4%.
`O=Cc1ccc[nH]1` has an inhibition of -58%.
`CN[C@H]1C[C@@H](N)[C@H](O)[C@@H](O[C@@H]2O[C@H](CO)[C@H](O)[C@@H]3OC4(O[C@H]23)O[C@H]([C@@H](N)CO)[C@H](O)[C@H](O)[C@H]4O)[C@@H]1O` (stereo partly shown) gave an inhibition of 26%.
With `CC(C)CCC(=O)c1ccoc1` the inhibition was -5%.
For `CC(=O)c1c(O)c(C)c(O)c(Cc2c(O)c3c(c(C(=O)/C=C/c4ccccc4)c2O)OC(C)(C)C=C3)c1O`, the inhibition was -27%.

Sample 2 — read-out: ligand displacement; tested at: 10 µM
Compound: Cc1c(N2CCNCC2)nc2ccc(Br)cc2c1C(=O)NC[C@H](CCC(=O)O)c1ccccc1Cl
It gave 15.2% for inhibition (HTR1B (Homo sapiens, UniProt P28222)).
The inhibition was 33.5% (SLC6A3 (Homo sapiens, UniProt Q01959)).
It gave 14.1% for inhibition (SLC6A2 (Homo sapiens, UniProt P23975)).
SLC6A4 (Homo sapiens, UniProt P31645) — inhibition: 5.34%.
The inhibition was 18.3% (HTR1E (Homo sapiens, UniProt P28566)).

Sample 3 — read-out: enzyme activity; action: inhibitor; tested at: 0.5 µM; baseline: control
Compound: COc1ccc2c(c[n+](C)c3c4cc5c(cc4ccc23)OCO5)c1OC
For AKT2 (Homo sapiens, UniProt P31751): remaining activity read 93.6%.
For CLK4 (Homo sapiens, UniProt Q9HAZ1): remaining activity read 89.8%.
CDC42BPB (Homo sapiens, UniProt Q9Y5S2) — remaining activity: 107%.
MAPK14 (Homo sapiens, UniProt Q16539) — remaining activity: 94.1%.
The remaining activity was 89.7% (Cyclin-dependent kinase 1, with cyclin A (CDK1, Homo sapiens, UniProt P06493)).
The remaining activity was 97.8% (MAP2K1 (Homo sapiens, UniProt Q02750)).
MINK1 (Homo sapiens, UniProt Q8N4C8) — remaining activity: 97.5%.
The remaining activity was 104% (KDR (Homo sapiens, UniProt P35968)).
It gave 99.3% for remaining activity (MARK4 (Homo sapiens, UniProt Q96L34)).
It gave 96.6% for remaining activity (PAK3 (Homo sapiens, UniProt O75914)).
CAMK4 (Homo sapiens, UniProt Q16566) — remaining activity: 99.9%.
It gave 100% for remaining activity (PLK3 (Homo sapiens, UniProt Q9H4B4)).
It gave 95.2% for remaining activity (CLK3 (Homo sapiens, UniProt P49761)).
The remaining activity was 95% (MARK2 (Homo sapiens, UniProt Q7KZI7)).

Sample 4 — action: degrader; technique: HiBiT; cells: HEK293; tested at: 4.572 nM
Target: CRBN/Zinc finger protein Helios (Homo sapiens, UniProt Q96SW2+Q9UKS7)
UniProt Q9UKS7, sequence (whole entry, looked up): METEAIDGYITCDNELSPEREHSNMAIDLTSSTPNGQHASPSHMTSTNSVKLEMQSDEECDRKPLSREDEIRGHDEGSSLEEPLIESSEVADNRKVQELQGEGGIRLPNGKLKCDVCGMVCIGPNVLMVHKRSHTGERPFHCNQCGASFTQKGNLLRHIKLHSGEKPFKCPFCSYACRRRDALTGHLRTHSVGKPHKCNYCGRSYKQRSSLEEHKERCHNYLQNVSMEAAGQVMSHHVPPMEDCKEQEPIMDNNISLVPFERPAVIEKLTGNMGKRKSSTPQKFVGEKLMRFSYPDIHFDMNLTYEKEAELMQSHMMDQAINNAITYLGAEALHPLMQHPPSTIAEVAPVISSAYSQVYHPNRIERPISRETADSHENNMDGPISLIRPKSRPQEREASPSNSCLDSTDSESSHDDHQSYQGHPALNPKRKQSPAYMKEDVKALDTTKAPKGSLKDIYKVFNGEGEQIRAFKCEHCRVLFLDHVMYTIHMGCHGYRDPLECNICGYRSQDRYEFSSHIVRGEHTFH
UniProt Q96SW2, sequence (whole entry, looked up): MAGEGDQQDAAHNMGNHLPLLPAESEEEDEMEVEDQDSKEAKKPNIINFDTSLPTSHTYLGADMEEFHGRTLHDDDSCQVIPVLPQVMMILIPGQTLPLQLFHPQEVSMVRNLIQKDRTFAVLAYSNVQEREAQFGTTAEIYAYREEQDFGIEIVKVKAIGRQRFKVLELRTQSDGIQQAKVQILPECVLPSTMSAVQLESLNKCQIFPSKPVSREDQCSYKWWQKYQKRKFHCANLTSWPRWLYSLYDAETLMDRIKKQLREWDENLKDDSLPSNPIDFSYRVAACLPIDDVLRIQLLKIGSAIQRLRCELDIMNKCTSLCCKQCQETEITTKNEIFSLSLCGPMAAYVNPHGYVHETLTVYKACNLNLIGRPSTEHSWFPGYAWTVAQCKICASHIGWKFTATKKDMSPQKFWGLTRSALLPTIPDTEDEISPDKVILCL
`O=C1CCC(N2Cc3c(ccc4c3OCC43CCN(CC4CCCCC4)CC3)C2=O)C(=O)N1` (stereo not shown) has a protein remaining of 75.8%.
The protein remaining of `O=C1CCC(N2Cc3c(ccc4c3OCC43CCN(Cc4ccsc4)CC3)C2=O)C(=O)N1` (stereo not shown) is reported as 60.1%.
`O=C1CCC(N2Cc3c(ccc4c3OCC43CCCN(Cc4ccccc4)CC3)C2=O)C(=O)N1` (stereo not shown) has a protein remaining of 96.3%.
`O=C1CCC(N2Cc3c(ccc4c3OCC43CCN(Cc4ccccc4)CC3(F)F)C2=O)C(=O)N1` (stereo not shown) gave a protein remaining of 102%.
For `O=C1CCC(N2Cc3c(ccc4c3OCC43CCN(Cc4ccccn4)CC3)C2=O)C(=O)N1` (stereo not shown), the protein remaining was 78.7%.
The protein remaining of `O=C1CCC(N2Cc3c(ccc4c3OCC43CCN(Cc4ccccc4)C3)C2=O)C(=O)N1` (stereo not shown) is reported as 90.8%.

Excerpt of the above (sample 4):
`O=C1CCC(N2Cc3c(ccc4c3OCC43CCN(CC4CCCCC4)CC3)C2=O)C(=O)N1` (stereo not shown) has a protein remaining of 75.8%.
The protein remaining of `O=C1CCC(N2Cc3c(ccc4c3OCC43CCN(Cc4ccsc4)CC3)C2=O)C(=O)N1` (stereo not shown) is reported as 60.1%.
`O=C1CCC(N2Cc3c(ccc4c3OCC43CCCN(Cc4ccccc4)CC3)C2=O)C(=O)N1` (stereo not shown) has a protein remaining of 96.3%.
`O=C1CCC(N2Cc3c(ccc4c3OCC43CCN(Cc4ccccc4)CC3(F)F)C2=O)C(=O)N1` (stereo not shown) gave a protein remaining of 102%.
